Assay results from different studies.
Compare with care: the assays were run in different laboratories. Several values in a cell are separate wells, animals, samples, runs or records.
Target: Aurora kinase A (AURKA, Homo sapiens, UniProt O14965)

With `CC(C)=CC1OC(C)(C)C2C=C3C(=O)C(Cl)=CC(O)C3C3C(O)C4OC4C(=O)C132` (centres unmarked) the remaining binding was 100% (cell-free assay, competition with immobilised ligand; 10 µM).
`Cc1cccc(O[C@H]2CCC[C@@H](C(C)CNCc3ccncc3)C2)c1` (relative stereo) has an inhibition of -3% (enzyme activity, inhibitor; 10 µM).
`CN1CCN(Cc2ccc(-c3ccc(CO[C@H]4CCC[C@@H]4NC(=O)c4cc(-c5cnn(C)c5)cnc4N)cc3)cc2)CC1` gave an inhibition of 5% (enzyme activity, inhibitor; 0.1 µM).
For `C[C@H]1CN(C(=O)c2cn(-c3ccnc(N)n3)c3cc(C#CC4(O)CCCCC4)ccc23)CCN1`, the inhibition was 7% (enzyme activity, inhibitor, FRET; 1 µM).
For `O=c1c(-c2ccc(Cl)c(CN3CCOCC3)c2)coc2cc(O)ccc12`, the remaining activity was 97% (enzyme activity, inhibitor; 1 µM).
The remaining binding of `COc1ccc(NC(=O)Nc2ccc3c(c2)C(=O)N(C(C)CO)CC(C)C(CN(C)Cc2ccc4c(c2)OCO4)O3)cc1` (centres unmarked) is reported as 22% (binding, competition with immobilised ligand; 10 µM).
For `COc1ccc(C(=O)/C=C/c2ccccc2-c2c[nH]c3ccc(C#N)cc23)c(O)c1`, the inhibition was 12% (enzyme activity, inhibitor; 20 µM).
The remaining binding of `COc1cc(Nc2nccc(-c3cnn4nc(OC)ccc34)n2)cc(C(F)(F)F)c1` is reported as 71% (binding, competition with immobilised ligand; 1 µM).
With `CN1CCN(Cc2ccc(NC(=O)c3cccc(C#Cc4cnc(N)c5ncccc45)c3)cc2C(F)(F)F)CC1` the remaining binding was 64% (cell-free assay, competition with immobilised ligand; 0.5 µM).
`COCC12C(=O)NC3C4(C(OC)CC1O)C1CC5(O)C(OC)C(O)C(OC(C)=O)(C1C5OC(=O)c1ccccc1)C3(O)C(OC)C24` (centres unmarked) gave a remaining activity of 103% and 101% (kinase activity, inhibitor, ProQinase kinase profiling; 25 µM; reference: control).
`CNC(=O)C[C@H](Cc1ccc(C#N)cc1)NC(=O)c1cc(-c2ccc(CN[C@H](C)c3ccc(C)cc3)o2)ccc1Cl`: “activity vs control” 100% (enzyme activity, inhibitor; 1 µM).
For `O=C(O)CCC(=O)c1cccc(NS(=O)(=O)c2c[nH]c3ncccc23)c1`, the remaining activity was 56% (kinase activity, radiometric; 10 µM).
`C=CC(=O)N1CCCC(n2c(=O)c3ncccc3n(Cc3ccc(Oc4ccccc4)cc3)c2=O)C1` (centres unmarked) has a remaining binding of 72% (cell-free assay, competition with immobilised ligand; 1 µM).
The remaining binding of `Cc1cnc2nc1Nc1cccc(c1)COC/C=C/COCc1cc(ccc1OCCN1CCOCC1)N2` is reported as 65% (binding; 0.1 µM).
The inhibition of `NC(=O)[C@@H](O)C[C@H]1CCc2sc3ncnc(O[C@H]4CC[C@H](N5CCOCC5)CC4)c3c21` is reported as 16% (enzyme activity, inhibitor; 10 µM).
`C=CC(=O)Nc1cccc(-c2cnc3[nH]cc(C(=O)NC(C)(C)C)c3n2)c1` gave an inhibition of 34% (enzyme activity, inhibitor; 0.1 µM).
For `C=CC(=O)N1Cc2nc(-c3cc(-c4cc(Cl)cnc4Cl)c(F)cc3F)n(-c3ccncn3)c2C1`, the inhibition was 6.2% (cell-free assay, inhibitor; 1 µM).
The remaining activity of `O=C=[N][Ru-4]123([n]4c5ccc(O)cc5c5c6c(c7cc(F)c[n+]1c7c54)C(=O)NC6=O)[S+]1CC[S+]2CC[S+]3CC1` (centres unmarked) is reported as 117% (enzyme activity; 100 nM, human enzyme, with: 10 µM ATP; reference: untreated).
For `COc1c(Cl)cccc1Nc1c(-c2ccncc2C#C[C@@]2(C)CCCN2C(=O)/C=C/CN(C)C)[nH]c2c1C(=O)NCC2`, the remaining binding was 89% (cell-free assay, competition with immobilised ligand; 3 µM).
`C=CC(=O)N1CCc2ccc(-n3c(=O)ccc4cnc5ccc(-c6cnn(C)c6)cc5c43)cc21` has a remaining binding of 100% (KINOMEscan; 1 µM; reference: DMSO control).

Some of these lines once more:
The remaining binding of `COc1ccc(NC(=O)Nc2ccc3c(c2)C(=O)N(C(C)CO)CC(C)C(CN(C)Cc2ccc4c(c2)OCO4)O3)cc1` (centres unmarked) is reported as 22% (binding, competition with immobilised ligand; 10 µM).
